Experimental data pooled from the literature.
Each numbered part is a random draw from the data of one study; scales do not carry over between parts. Changes are numbered by the printed parent chain.
Chain of UniProt P36894 (whole entry, looked up): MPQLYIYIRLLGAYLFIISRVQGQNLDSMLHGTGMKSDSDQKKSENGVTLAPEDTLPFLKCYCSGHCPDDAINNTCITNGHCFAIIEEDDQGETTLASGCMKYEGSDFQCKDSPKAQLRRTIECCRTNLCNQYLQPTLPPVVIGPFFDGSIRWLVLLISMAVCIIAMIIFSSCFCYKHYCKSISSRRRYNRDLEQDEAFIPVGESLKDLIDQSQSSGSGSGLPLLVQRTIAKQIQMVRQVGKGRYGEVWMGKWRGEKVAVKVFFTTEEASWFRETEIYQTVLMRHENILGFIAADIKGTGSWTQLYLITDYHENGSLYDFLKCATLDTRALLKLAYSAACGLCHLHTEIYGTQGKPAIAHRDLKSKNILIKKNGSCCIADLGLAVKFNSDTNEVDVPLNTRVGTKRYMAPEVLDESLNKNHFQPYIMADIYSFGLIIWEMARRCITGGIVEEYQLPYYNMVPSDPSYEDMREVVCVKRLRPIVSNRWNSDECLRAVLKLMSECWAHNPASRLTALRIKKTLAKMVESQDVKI

Set 1
Change: G23F
Target: ABI1, truncated, D143A, DHFR fusion (Arabidopsis thaliana)
Technique: DHFR PCA, deep sequencing
Medium: yeast
Notes: methotrexate growth selection, single substitutions
Baseline: wild-type fitted maximum
Direction: higher = stronger binding
Endpoint: relative binding score
Parent: PYL1, truncated, DHFR fusion (Arabidopsis thaliana); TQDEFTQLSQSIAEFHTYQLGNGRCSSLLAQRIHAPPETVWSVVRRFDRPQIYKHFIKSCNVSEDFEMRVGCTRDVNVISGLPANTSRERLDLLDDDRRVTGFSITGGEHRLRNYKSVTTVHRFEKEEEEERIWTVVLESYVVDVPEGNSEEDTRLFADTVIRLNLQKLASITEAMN
added: (+)-ABA 0 µM: -0.103%
added: (+)-ABA 2500 µM: 92.3%
added: (+)-ABA 58 µM: 64.7%
added: (+)-ABA 710 µM: 95%
added: (+)-ABA 0.0091 µM: 7.11%
added: (+)-ABA 0.032 µM: -0.181%

Set 2
Target: CCNB2, cyclin fold, Cln2 fusion (human)
Technique: yeast growth competition, sequencing
Medium: yeast
Notes: weak parent motif
Baseline: not given
Direction: higher = stronger binding
Endpoint: normalised enrichment score
Parent: CDC25A docking peptide (human); PPHRRRLLFACSP
H3V: 1.33
L8H: 0.514
L7G: 0.298
R6S: 0.439
P13I: 0.449
P2W: 0.571
P2C: 0.96
P13V: 0.388

Other studies, line by line
CO[C@H]1CC[C@H](CNc2ccc(S(=O)(=O)NC(=O)c3ccc(N4CCN(CC5=C(c6ccc(Cl)cc6)CC(C)(C)CC5)CC4)cc3Oc3cnc4[nH]ccc4c3)cc2[N+](=O)[O-])CC1
remaining binding (Bone morphogenetic protein receptor type-1A (BMPR1A, Homo sapiens, UniProt P36894); binding, competition with immobilised ligand; 1 µM): 57%

O=C(c1ccc(F)cc1)C1CCN(CCn2c(=O)[nH]c3ccccc3c2=O)CC1
nuclei count (mouse MPNST tumor cells; high-content nuclear imaging, measured: cell number; 10 µM, 12 h, mean of 2 replicates; baseline: plate mean, higher = more cells): 2.07 z-score
